# Experimental data gathered from unrelated publications.
# Lines come from different studies, so protocols differ. ± marks the error that the study gave.
Compound,target,test,system,conditions,IC50
CC(=O)N[C@H]1CSC(=O)[C@H](Cc2ccccc2)NC(=O)[C@H](Cc2ccccc2)NC(=O)CCCCCCCNC1=O,AgrC (Staphylococcus aureus),"reporter gene, inhibitor","Staphylococcus aureus, AH1872 (MN EV)",24 h,985 nM
NC[C@@H]1O[C@H](O[C@H]2[C@@H](O)[C@H](O[C@@H]3[C@@H](O)[C@H](N)C[C@H](N)[C@H]3O[C@H]3O[C@H](CO)[C@@H](OCCCO)[C@H](O)[C@H]3N)O[C@@H]2CO)[C@H](N)[C@@H](O)[C@@H]1O,Mycobacterium smegmatis ribosome G1491A,"translation, cell-free luciferase synthesis",,,144 ± 15.9 µg/mL
COC[C@@H](NC(C)=O)C(=O)NCc1ccc(-c2ccc(F)cc2)cc1,voltage-gated sodium channels (mouse),"slow inactivation, whole-cell patch clamp",CAD cells,-50 mV conditioning pulse,820 nM
CC(=O)NC1C(OC2OC(CC(O)C3OC(n4ccc(=O)[nH]c4=O)C(O)C3O)C(O)C(O)C2NC(=O)C=CCCCCCCCCCC(C)C)OC(CO)C(O)C1O (stereo not drawn),MraY,"enzyme activity, inhibitor",,,> 50000 nM
CC[C@H](C)[C@H](NC(=O)[C@H](C)NC(=O)[C@@H](N)Cc1c[nH]cn1)C(=O)N[C@@H](Cc1ccc(O)cc1)C(=O)N1CCC[C@H]1C(=O)N[C@@H](CCCNC(=N)N)C(=O)N[C@@H](Cc1c[nH]cn1)C(=O)N[C@@H](CO)C(=O)N[C@@H](Cc1c[nH]c2ccccc12)C(=O)N[C@H](C(=O)N[C@@H](Cc1c[nH]c2ccccc12)C(=O)N[C@@H](CCC(=O)O)C(=O)N[C@@H](CCCCN)C(=O)N[C@@H](CCCCN)C(=O)N[C@@H](CC(C)C)C(=O)N[C@@H](CCC(=O)O)C(=O)N[C@H](C(=O)N[C@@H](C)C(=O)N[C@H](C(=O)N[C@@H](CC(N)=O)C(=O)N[C@@H](CC(C)C)C(=O)N[C@@H](C)C(=O)N[C@@H](Cc1c[nH]c2ccccc12)C(=O)N[C@H](C(=O)N[C@@H](C)C(=O)NCC(=O)N[C@@H](CC(N)=O)C(=O)N[C@@H](CO)C(=O)N[C@@H](CC(N)=O)C(=O)N[C@@H](CCCCN)C(=O)N[C@@H](Cc1c[nH]c2ccccc12)C(=O)N[C@H](C(=O)N[C@@H](Cc1c[nH]c2ccccc12)C(=O)N[C@@H](CCCCN)C(=O)O)[C@@H](C)O)[C@@H](C)O)C(C)C)[C@@H](C)O)[C@@H](C)O,cell death,PI staining flow cytometry,MEC1,90 min,3600 nM
CC(=O)N[C@H]1CNC(=O)[C@H](Cc2ccccc2)NC(=O)[C@H](Cc2ccccc2)NC(=O)CCCCCCCCNC1=O,AgrC (Staphylococcus aureus),"reporter gene, inhibitor","Staphylococcus aureus, AH1677 (USA300 LAC)",24 h,4740 nM
CC(C)CS[C@H]1[C@H](O)[C@@H](N)[C@@H](O[C@H]2[C@H](O[C@@H]3O[C@H](CO)[C@@H](O[C@H]4O[C@@H](CN)[C@@H](O)[C@H](O)[C@H]4N)[C@H]3O)[C@@H](O)[C@H](N)C[C@@H]2N)O[C@@H]1CO,"bacterial hybrid ribosome, human cytoplasmic A site","cell-free translation, inhibitor",,,161 µg/mL
CC[C@H](C)[C@H](NC(=O)[C@H](CCCCN)NC(=O)[C@@H](NC(=O)[C@H](CCC(N)=O)NC(=O)[C@@H](N)CCCNC(=N)N)[C@@H](C)CC)C(=O)N[C@@H](Cc1c[nH]c2ccccc12)C(=O)N[C@@H](Cc1ccccc1)C(=O)N[C@@H](CCC(N)=O)C(=O)N[C@@H](CC(N)=O)C(=O)N[C@@H](CCCNC(=N)N)C(=O)N[C@@H](CCCNC(=N)N)C(=O)N[C@@H](CCSC)C(=O)N[C@@H](CCCCN)C(=O)N[C@@H](Cc1c[nH]c2ccccc12)C(=O)N[C@@H](CCCCN)C(=O)N[C@@H](CCCCN)C(=O)N[C@@H](CO)C(=O)N[C@@H](Cc1c[nH]c2ccccc12)C(=O)N[C@H](C(=O)N[C@@H](Cc1c[nH]c2ccccc12)C(=O)N[C@@H](CCC(=O)O)C(=O)N[C@@H](CCCCN)C(=O)N[C@@H](CCCCN)C(=O)N[C@@H](CC(C)C)C(=O)N[C@@H](CCC(=O)O)C(=O)N[C@H](C(=O)N[C@@H](C)C(=O)N[C@H](C(=O)N[C@@H](CC(N)=O)C(=O)N[C@@H](CC(C)C)C(=O)N[C@@H](C)C(=O)N[C@@H](Cc1c[nH]c2ccccc12)C(=O)N[C@H](C(=O)N[C@@H](C)C(=O)NCC(=O)N[C@@H](CC(N)=O)C(=O)N[C@@H](CO)C(=O)N[C@@H](CC(N)=O)C(=O)N[C@@H](CCCCN)C(=O)N[C@@H](Cc1c[nH]c2ccccc12)C(=O)N[C@H](C(=O)N[C@@H](Cc1c[nH]c2ccccc12)C(=O)N[C@@H](CCCCN)C(=O)O)[C@@H](C)O)[C@@H](C)O)C(C)C)[C@@H](C)O)[C@@H](C)O,cell death,PI staining flow cytometry,MEC1,90 min,2500 nM
CCCS[C@H]1[C@H](O)[C@@H](N)[C@@H](O[C@H]2[C@H](O[C@@H]3O[C@H](CO)[C@@H](O[C@H]4O[C@@H](CN)[C@@H](O)[C@H](O)[C@H]4N)[C@H]3O)[C@@H](O)[C@H](N)C[C@@H]2N)O[C@@H]1CO,"bacterial hybrid ribosome, human mitochondrial A1555G A site","cell-free translation, inhibitor",,,110 µg/mL
CCCCCCCCC(=O)NCc1ccc(O)c(OC)c1,mouse mAb 1-G12,"antibody binding, indirect competitive ELISA",,,0.383 µg/mL
COCOC[C@H]1O[C@H](O[C@H]2[C@H](O[C@@H]3O[C@H](CO)[C@@H](O[C@H]4O[C@@H](CN)[C@@H](O)[C@H](O)[C@H]4N)[C@H]3O)[C@@H](O)[C@H](N)C[C@@H]2N)[C@H](N)[C@@H](O)[C@@H]1O,Mycobacterium smegmatis ribosome G1491C,"translation, cell-free luciferase synthesis",,,586 ± 16.8 µg/mL
C[C@@H](NC(=O)[C@@H](N)Cc1ccc(O)cc1)C(=O)NCC(=O)N[C@@H](Cc1ccc(F)cc1)C(=O)Nc1ccccc1NC(=O)[C@H](Cc1ccc(F)cc1)NC(=O)CNC(=O)[C@@H](C)NC(=O)[C@@H](N)Cc1ccc(O)cc1,"mu opioid receptor, guinea pig","ileum contraction, agonist",guinea pig ileum LMMP,,3.7 ± 1 nM
CC(C)C[C@@H](/C=C/S(C)(=O)=O)NC(=O)[C@H](CC(C)C)NC(=O)[C@@H](NC(=O)N[C@H](C(=O)NCc1ccccc1)C(C)C)C(C)C,rabbit 26S proteasome beta2,trypsin-like activity,,"30 min, 37 °C, added: Ac-RLR-AMC",10000 nM
CC(=O)N[C@H]1CSC(=O)[C@H](Cc2ccccc2)NC(=O)[C@H](Cc2ccccc2)NC(=O)COCCOCCNC1=O,AgrC (Staphylococcus aureus),"reporter gene, inhibitor","Staphylococcus aureus, AH1747 (MW2)",24 h,332 nM
CCS(=O)(=O)[C@H]1[C@H](O)[C@@H](N)[C@@H](O[C@H]2[C@H](O[C@@H]3O[C@H](CO)[C@@H](O[C@H]4O[C@@H](CN)[C@@H](O)[C@H](O)[C@H]4N)[C@H]3O)[C@@H](O)[C@H](N)C[C@@H]2N)O[C@@H]1CO,"bacterial hybrid ribosome, human cytoplasmic A site","cell-free translation, inhibitor",,,136 µg/mL
CCCCCO[C@H]1[C@H](O)[C@@H](N)[C@@H](O[C@H]2[C@H](O[C@@H]3O[C@H](CO)[C@@H](O[C@H]4O[C@@H](CN)[C@@H](O)[C@H](O)[C@H]4N)[C@H]3O)[C@@H](O)[C@H](N)C[C@@H]2N)O[C@@H]1CO,Mycobacterium smegmatis ribosome G1491A,"translation, cell-free luciferase synthesis",,,62.1 ± 9.35 µg/mL
CC(=O)N[C@H]1CNC(=O)[C@H](Cc2ccccc2)NC(=O)[C@H](Cc2ccccc2)NC(=O)COCCOCCNC1=O,AgrC (Staphylococcus aureus),"reporter gene, inhibitor","Staphylococcus aureus, AH1747 (MW2)",24 h,> 10000 nM
NC[C@@H]1O[C@H](O[C@H]2[C@@H](O)[C@H](O[C@@H]3[C@@H](O)[C@H](N)C[C@H](N)[C@H]3O[C@H]3O[C@H](CO)[C@@H](CCO)[C@H](O)[C@H]3N)O[C@@H]2CO)[C@H](N)[C@@H](O)[C@@H]1O,wild-type bacterial ribosome,"cell-free translation, inhibitor",,,0.03 µg/mL
COCOC[C@H]1O[C@H](O[C@H]2[C@H](O[C@@H]3O[C@H](CO)[C@@H](O[C@H]4O[C@@H](CN)[C@@H](O)[C@H](O)[C@H]4N)[C@H]3O)[C@@H](O)[C@H](N)C[C@@H]2N)[C@H](N)[C@@H](O)[C@@H]1OCOC,Mycobacterium smegmatis ribosome G1491A,"translation, cell-free luciferase synthesis",,,529 ± 76 µg/mL
CC[S+]([O-])C1C(CO)OC(OC2C(N)CC(N)C(O)C2OC2OC(CO)C(OC3OC(CN)C(O)C(O)C3N)C2O)C(N)C1O (mixture of isomers),"bacterial hybrid ribosome, human mitochondrial A site","cell-free translation, inhibitor",,,118 µg/mL
CCCCO[C@H]1[C@H](O)[C@@H](N)[C@@H](O[C@H]2[C@H](O[C@@H]3O[C@H](CO)[C@@H](O[C@H]4O[C@@H](CN)[C@@H](O)[C@H](O)[C@H]4N)[C@H]3O)[C@@H](O)[C@H](N)C[C@@H]2N)O[C@@H]1CO,Mycobacterium smegmatis ribosome G1491C,"translation, cell-free luciferase synthesis",,,348 ± 23.7 µg/mL
CC[C@@H]1CN2CCc3c([nH]c4cccc(OC)c34)[C@@H]2C[C@@H]1/C(=C\OC)C(=O)OC,anti-compound rabbit polyclonal IgG,"antibody binding, competitive indirect ELISA",,"1× PBST antibody diluent, Tween 0.05%",4.98 µg/mL
NC[C@@H]1O[C@H](O[C@H]2[C@@H](O)[C@H](O[C@@H]3[C@@H](O)[C@H](N)C[C@H](N)[C@H]3O[C@H]3O[C@H](CO)[C@@H](SCCF)[C@H](O)[C@H]3N)O[C@@H]2CO)[C@H](N)[C@@H](O)[C@@H]1O,"bacterial hybrid ribosome, human mitochondrial A site","cell-free translation, inhibitor",,,102 µg/mL
CCCO[C@H]1[C@H](O)[C@@H](N)[C@@H](O[C@H]2[C@H](O[C@@H]3O[C@H](CO)[C@@H](O[C@H]4O[C@@H](CN)[C@@H](O)[C@H](O)[C@H]4N)[C@H]3O)[C@@H](O)[C@H](N)C[C@@H]2N)O[C@@H]1CO,Mycobacterium smegmatis ribosome G1491A,"translation, cell-free luciferase synthesis",,,45.5 ± 23.6 µg/mL
CC(C)S[C@H]1[C@H](O)[C@@H](N)[C@@H](O[C@H]2[C@H](O[C@@H]3O[C@H](CO)[C@@H](O[C@H]4O[C@@H](CN)[C@@H](O)[C@H](O)[C@H]4N)[C@H]3O)[C@@H](O)[C@H](N)C[C@@H]2N)O[C@@H]1CO,wild-type bacterial ribosome,"cell-free translation, inhibitor",,,0.1 µg/mL
C=CCO[C@H]1[C@H](O)[C@@H](N)[C@@H](O[C@H]2[C@H](O[C@@H]3O[C@H](CO)[C@@H](O[C@H]4O[C@@H](CN)[C@@H](O)[C@H](O)[C@H]4N)[C@H]3O)[C@@H](O)[C@H](N)C[C@@H]2N)O[C@@H]1CO,Mycobacterium smegmatis ribosome G1491A,"translation, cell-free luciferase synthesis",,,44.7 ± 3.15 µg/mL
CC[C@H](C)[C@H](NC(=O)[C@@H](NC(=O)[C@@H](NC(=O)[C@H](CCCNC(=N)N)NC(=O)[C@@H](N)CCCCN)C(C)C)C(C)C)C(=O)N[C@@H](CC(N)=O)C(=O)N[C@@H](CCCCN)C(=O)N[C@@H](CC(=O)O)C(=O)N[C@H](C(=O)O)[C@@H](C)O,Mamu-B*010:01 (Chinese rhesus macaque),"MHC binding, purified MHC",,,> 20000 nM

# Excerpt of the above:
Compound,target,test,system,conditions,IC50
CCS(=O)(=O)[C@H]1[C@H](O)[C@@H](N)[C@@H](O[C@H]2[C@H](O[C@@H]3O[C@H](CO)[C@@H](O[C@H]4O[C@@H](CN)[C@@H](O)[C@H](O)[C@H]4N)[C@H]3O)[C@@H](O)[C@H](N)C[C@@H]2N)O[C@@H]1CO,"bacterial hybrid ribosome, human cytoplasmic A site","cell-free translation, inhibitor",,,136 µg/mL
CC[C@H](C)[C@H](NC(=O)[C@H](C)NC(=O)[C@@H](N)Cc1c[nH]cn1)C(=O)N[C@@H](Cc1ccc(O)cc1)C(=O)N1CCC[C@H]1C(=O)N[C@@H](CCCNC(=N)N)C(=O)N[C@@H](Cc1c[nH]cn1)C(=O)N[C@@H](CO)C(=O)N[C@@H](Cc1c[nH]c2ccccc12)C(=O)N[C@H](C(=O)N[C@@H](Cc1c[nH]c2ccccc12)C(=O)N[C@@H](CCC(=O)O)C(=O)N[C@@H](CCCCN)C(=O)N[C@@H](CCCCN)C(=O)N[C@@H](CC(C)C)C(=O)N[C@@H](CCC(=O)O)C(=O)N[C@H](C(=O)N[C@@H](C)C(=O)N[C@H](C(=O)N[C@@H](CC(N)=O)C(=O)N[C@@H](CC(C)C)C(=O)N[C@@H](C)C(=O)N[C@@H](Cc1c[nH]c2ccccc12)C(=O)N[C@H](C(=O)N[C@@H](C)C(=O)NCC(=O)N[C@@H](CC(N)=O)C(=O)N[C@@H](CO)C(=O)N[C@@H](CC(N)=O)C(=O)N[C@@H](CCCCN)C(=O)N[C@@H](Cc1c[nH]c2ccccc12)C(=O)N[C@H](C(=O)N[C@@H](Cc1c[nH]c2ccccc12)C(=O)N[C@@H](CCCCN)C(=O)O)[C@@H](C)O)[C@@H](C)O)C(C)C)[C@@H](C)O)[C@@H](C)O,cell death,PI staining flow cytometry,MEC1,90 min,3600 nM
